Results pooled from the literature.
Protocols differ between the studies behind these lines. Values joined by “and” are separate records of one study, mostly repeats; a detail may differ.
rep main protease: Replicase polyprotein 1ab, main protease (rep, Severe acute respiratory syndrome coronavirus 2, UniProt P0DTD1)

O=C(Nc1ccccc1F)c1cc2c(=O)n3ccccc3nc2n1Cc1ccccc1
inhibition (Severe acute respiratory syndrome coronavirus 2; viral replication, inhibitor, qPCR; Vero C1008; 1 µM): 83.5%

CCOc1nc(N)ncc1-c1cn([C@@H]2O[C@](F)(CO)[C@@H](O)[C@H]2O)cn1
IC50 (Severe acute respiratory syndrome coronavirus 2; viral replication, inhibitor; A549-ACE2; 24 h): > 100 µM

CC(=O)c1cccc(NC(=O)c2cc3c(=O)n4ccccc4nc3n2C)c1
EC90 (Severe acute respiratory syndrome coronavirus 2; viral replication, inhibitor, qPCR; Vero C1008): 2.5 µM

Cn1cnc(Cn2c(=O)[nH]/c(=N\c3cc4cn(C)nc4cc3Cl)n(Cc3cc(F)c(F)cc3F)c2=O)n1
inhibition (Severe acute respiratory syndrome coronavirus 2; viral replication; Vero C1008; 1.389 µM): 100%

COc1ncncc1-c1cn([C@@H]2O[C@](F)(COC(=O)C(C)C)[C@@H](OC(=O)C(C)C)[C@H]2OC(=O)C(C)C)cn1
IC50 (Severe acute respiratory syndrome coronavirus 2; viral replication, inhibitor; A549-ACE2; 24 h): 39.8 µM

CCC(CC)COC(=O)[C@H](C)N[P@](=O)(OC[C@H]1O[C@@](C#N)(c2ccc3c(N)ncnn23)[C@H](O)[C@@H]1O)Oc1ccccc1
inhibition (Severe acute respiratory syndrome coronavirus 2; viral replication, inhibitor, qPCR; Vero C1008; 1 µM): 94.2%

Nc1ncnc2c([C@@H]3N[C@H](CO)[C@@H](O)[C@H]3O)c[nH]c12
inhibition (Marburg virus; viral replication; HeLa, Musoke; 0.8 µM): 23%

COc1nc(N)ncc1-c1cn([C@@H]2O[C@](F)(COC(=O)C(C)C)[C@@H](OC(=O)C(C)C)[C@H]2OC(=O)C(C)C)cn1
IC50 (Severe acute respiratory syndrome coronavirus 2; viral replication, inhibitor; A549-ACE2; 24 h): 28.5 µM

CC[C@H](C)[C@H](NC(=O)[C@H](CO)NC(=O)[C@@H]1CCCN1C(=O)[C@H](CO)NC(=O)[C@@H](N)CCSC)C(=O)N[C@@H](CC(C)C)C(=O)N[C@@H](CCCCN)C(=O)N[C@@H](Cc1c[nH]cn1)C(=O)N[C@@H](Cc1c[nH]c2ccccc12)C(=O)N[C@@H](CO)C(=O)N[C@@H](CCCNC(=N)N)C(=O)N[C@@H](CCC(N)=O)C(=O)NCC(=O)NCC(=O)NCC(=O)N[C@@H](CCCCN)C(=O)N[C@@H](CC(C)C)C(=O)N[C@@H](CCCCN)C(=O)N[C@@H](CCCCN)C(=O)N[C@@H](CC(C)C)C(=O)N[C@@H](CC(C)C)C(=O)N[C@@H](CC(C)C)C(=O)NCC(=O)N[C@@H](CC(C)C)C(=O)N[C@@H](CC(C)C)C(=O)N[C@@H](CC(C)C)C(=O)N[C@@H](CCCCN)C(=O)N[C@@H](CCCCN)C(=O)O
lowest cytotoxic concentration (HEK-293T; cell death; 24 h, 10% cell death): 64 µg/mL

CC[C@H](C)[C@H](NC(=O)[C@H](CC(C)C)NC(=O)[C@H](Cc1c[nH]c2ccccc12)NC(=O)[C@H](CCC(N)=O)NC(=O)[C@@H](NC(=O)[C@H](Cc1ccccc1)NC(=O)[C@H](C)NC(=O)[C@H](CCCCNC(=O)COCCOCCNC(=O)COCCOCCNC(=O)CC[C@H](NC(=O)CCCCCCCCCCCCCCCCCCC(=O)O)C(=O)O)NC(=O)[C@H](CCC(N)=O)NC(=O)[C@H](C)NC(=O)[C@@H](NC(=O)[C@H](CCCCN)NC(=O)[C@H](CC(=O)O)NC(=O)[C@H](CC(C)C)NC(=O)C(C)(C)NC(=O)[C@@H](NC(=O)[C@H](CO)NC(=O)[C@H](Cc1ccc(O)cc1)NC(=O)[C@H](CC(=O)O)NC(=O)[C@H](CO)NC(=O)[C@@H](NC(=O)[C@H](Cc1ccccc1)NC(=O)[C@@H](NC(=O)CNC(=O)[C@H](CCC(=O)O)NC(=O)C(C)(C)NC(=O)[C@@H](N)Cc1ccc(O)cc1)[C@@H](C)O)[C@@H](C)O)[C@@H](C)CC)[C@@H](C)CC)C(C)C)C(=O)N[C@@H](C)C(=O)NCC(=O)NCC(=O)N1CCC[C@H]1C(=O)N[C@@H](CO)C(=O)N[C@@H](CO)C(=O)NCC(=O)N[C@@H](C)C(=O)N1CCC[C@H]1C(=O)N1CCC[C@H]1C(=O)N1CCC[C@H]1C(=O)N[C@@H](CO)C(N)=O
severe hypoglycaemia (healthy subjects; 0.5 mg, multiple ascending dose): 0%

O=C(/C=C/c1ccc(O)c(O)c1/C=C/c1ccc(O)c(O)c1)O[C@H](Cc1ccc(O)c(O)c1)C(=O)O
inhibition (Severe acute respiratory syndrome coronavirus 2; cytopathic effect, inhibitor; Vero C1008; 6.25 µM): 0%

CCc1ccc(NC(=O)c2cc3c(=O)n4ccccc4nc3n2C)cc1
EC90 (Severe acute respiratory syndrome coronavirus 2; viral replication, inhibitor, qPCR; Vero C1008): 3.44 µM

Cl.N[C@@H](Cc1ccccc1)C(=O)N1C/C(=C/c2ccc(Cl)c(Cl)c2)C(=O)/C(=C\c2ccc(Cl)c(Cl)c2)C1
inhibition (rep main protease; reporter gene (mKate2), inhibitor; 20 µM): -1.39%

CC(C)C(=O)OC[C@@]1(F)O[C@@H](n2cnc(-c3cnc[nH]c3=O)c2)[C@H](OC(=O)C(C)C)[C@@H]1OC(=O)C(C)C
IC50 (Severe acute respiratory syndrome coronavirus 2; viral replication, inhibitor; A549-ACE2; 24 h): > 100 µM

CNC(=O)[C@@H](NC(=O)[C@H](CC(C)C)[C@H](O)C(=O)NO)C(C)(C)C
inhibition (prothrombin time; human platelet-poor plasma; 10 µM, added: AP venom): 15.2% and 15.5% and 15.7%

COc1ccccc1Nc1nc(-c2sc(NC(C)=O)nc2C)cs1
inhibition (rep main protease; viral replication, Gluc reporter; SARS-CoV-2; 20 µM): -5.11%

O=C(O[C@@H]1Cc2c(O)cc(O)cc2O[C@@H]1c1cc(O)c(O)c(O)c1)c1cc(O)c(O)c(O)c1
inhibition (Severe acute respiratory syndrome coronavirus 2; cytopathic effect; Vero C1008; 12.5 µM): 0%

Cc1ccc(NC(=O)c2cc3c(=O)n4cccc(C)c4nc3n2C)cc1Cl
EC90 (Severe acute respiratory syndrome coronavirus 2; viral replication, inhibitor, qPCR; Vero C1008): 2.6 µM

CC(C)=CCc1c(O)ccc(C(=O)/C=C/c2ccc(O)cc2)c1O
inhibition (Severe acute respiratory syndrome coronavirus 2; cytopathic effect, inhibitor; Vero C1008; 1.562 µM): 0%

COc1nc(N)ncc1-c1cn([C@@H]2O[C@](F)(CO[P@@](=O)(N[C@@H](C)C(=O)OC(C)C)Oc3ccccc3)[C@@H](O)[C@H]2O)cn1
IC50 (Severe acute respiratory syndrome coronavirus 2; viral replication, inhibitor; A549-ACE2; 24 h): > 100 µM

C=C[C@@](C)(/C=C/c1ccc(O)cc1)CCC=C(C)C
inhibition (Severe acute respiratory syndrome coronavirus 2; cytopathic effect, inhibitor; Vero C1008; 100 µM): 0%

Cn1cnc(Cn2c(=O)[nH]/c(=N\c3cc4cn(C)nc4cc3Cl)n(Cc3cc(F)c(F)cc3F)c2=O)n1
dry mouth TEAE, Moderate severity (human, severe renal impairment; oral, 375 mg): 0%
